{"data": "Published values collected from several papers", "CDK13": "Cyclin-dependent kinase 13 (CDK13, Homo sapiens, UniProt Q14004)", "HTR2A": "5-hydroxytryptamine receptor 2A (HTR2A, Homo sapiens, UniProt P28223)", "note": "Protocols differ between the studies behind these lines. “And” joins repeats or separate records; there may be more than shown. Numbers after ± are the reported error.", "UniProt Q5XJY4, sequence (whole entry, looked up)": "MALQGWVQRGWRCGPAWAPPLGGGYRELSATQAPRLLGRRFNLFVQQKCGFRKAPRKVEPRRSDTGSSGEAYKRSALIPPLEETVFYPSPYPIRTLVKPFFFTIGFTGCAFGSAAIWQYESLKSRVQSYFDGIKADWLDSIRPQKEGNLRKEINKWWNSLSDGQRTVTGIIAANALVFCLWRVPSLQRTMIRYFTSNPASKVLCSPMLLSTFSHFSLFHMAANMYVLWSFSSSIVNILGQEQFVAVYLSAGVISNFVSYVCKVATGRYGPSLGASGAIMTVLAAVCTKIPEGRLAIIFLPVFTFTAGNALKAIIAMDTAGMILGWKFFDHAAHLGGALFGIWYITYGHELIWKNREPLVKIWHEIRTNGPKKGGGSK", "UniProt Q14004, sequence (whole entry, looked up)": "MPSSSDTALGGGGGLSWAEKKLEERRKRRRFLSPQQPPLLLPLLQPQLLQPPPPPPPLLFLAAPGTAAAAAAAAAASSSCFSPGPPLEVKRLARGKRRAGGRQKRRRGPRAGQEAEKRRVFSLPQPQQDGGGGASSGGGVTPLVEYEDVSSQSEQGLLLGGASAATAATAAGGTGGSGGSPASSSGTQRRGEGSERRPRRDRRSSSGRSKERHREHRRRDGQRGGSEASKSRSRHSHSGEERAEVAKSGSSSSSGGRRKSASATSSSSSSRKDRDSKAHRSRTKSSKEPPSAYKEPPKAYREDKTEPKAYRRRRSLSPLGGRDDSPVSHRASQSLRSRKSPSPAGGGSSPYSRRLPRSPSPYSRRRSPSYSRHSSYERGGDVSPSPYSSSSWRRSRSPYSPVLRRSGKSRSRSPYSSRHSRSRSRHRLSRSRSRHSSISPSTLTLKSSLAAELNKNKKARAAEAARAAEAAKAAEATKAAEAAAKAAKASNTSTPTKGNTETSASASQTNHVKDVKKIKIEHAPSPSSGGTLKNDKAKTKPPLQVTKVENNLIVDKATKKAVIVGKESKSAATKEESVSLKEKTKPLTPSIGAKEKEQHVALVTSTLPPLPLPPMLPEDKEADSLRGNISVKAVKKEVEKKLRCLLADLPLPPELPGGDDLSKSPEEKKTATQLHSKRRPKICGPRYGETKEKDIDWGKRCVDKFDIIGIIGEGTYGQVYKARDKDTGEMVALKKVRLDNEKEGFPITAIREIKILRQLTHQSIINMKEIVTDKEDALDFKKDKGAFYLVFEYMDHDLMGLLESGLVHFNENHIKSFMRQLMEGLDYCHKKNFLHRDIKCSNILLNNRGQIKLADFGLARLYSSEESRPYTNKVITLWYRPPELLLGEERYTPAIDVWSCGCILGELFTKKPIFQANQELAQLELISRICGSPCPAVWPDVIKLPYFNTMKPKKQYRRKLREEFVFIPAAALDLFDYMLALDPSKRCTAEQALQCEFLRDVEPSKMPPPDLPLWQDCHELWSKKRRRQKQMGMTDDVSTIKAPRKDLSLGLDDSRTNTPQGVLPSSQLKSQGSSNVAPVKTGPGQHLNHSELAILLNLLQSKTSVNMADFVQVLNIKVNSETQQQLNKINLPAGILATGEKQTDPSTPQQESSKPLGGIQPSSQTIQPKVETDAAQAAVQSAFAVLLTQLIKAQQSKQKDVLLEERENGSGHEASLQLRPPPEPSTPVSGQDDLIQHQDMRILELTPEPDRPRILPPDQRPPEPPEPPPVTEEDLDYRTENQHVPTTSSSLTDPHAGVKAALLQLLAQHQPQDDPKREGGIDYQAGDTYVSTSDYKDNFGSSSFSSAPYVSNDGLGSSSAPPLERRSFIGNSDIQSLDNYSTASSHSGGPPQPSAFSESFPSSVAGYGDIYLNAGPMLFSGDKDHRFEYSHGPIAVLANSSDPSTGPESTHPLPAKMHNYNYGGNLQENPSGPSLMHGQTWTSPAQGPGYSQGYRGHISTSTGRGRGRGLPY", "UniProt P22612, sequence (whole entry, looked up)": "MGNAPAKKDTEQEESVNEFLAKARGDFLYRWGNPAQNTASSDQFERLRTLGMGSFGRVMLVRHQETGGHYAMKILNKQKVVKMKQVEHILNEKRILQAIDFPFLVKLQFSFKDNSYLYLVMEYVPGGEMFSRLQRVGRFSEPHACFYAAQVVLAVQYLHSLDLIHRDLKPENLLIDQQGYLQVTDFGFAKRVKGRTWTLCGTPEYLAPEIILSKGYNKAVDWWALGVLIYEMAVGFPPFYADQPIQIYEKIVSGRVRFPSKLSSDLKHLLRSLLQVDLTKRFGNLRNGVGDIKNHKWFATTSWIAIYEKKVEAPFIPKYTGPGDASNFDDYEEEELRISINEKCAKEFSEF", "UniProt Q9Y2J8, sequence (whole entry, looked up)": "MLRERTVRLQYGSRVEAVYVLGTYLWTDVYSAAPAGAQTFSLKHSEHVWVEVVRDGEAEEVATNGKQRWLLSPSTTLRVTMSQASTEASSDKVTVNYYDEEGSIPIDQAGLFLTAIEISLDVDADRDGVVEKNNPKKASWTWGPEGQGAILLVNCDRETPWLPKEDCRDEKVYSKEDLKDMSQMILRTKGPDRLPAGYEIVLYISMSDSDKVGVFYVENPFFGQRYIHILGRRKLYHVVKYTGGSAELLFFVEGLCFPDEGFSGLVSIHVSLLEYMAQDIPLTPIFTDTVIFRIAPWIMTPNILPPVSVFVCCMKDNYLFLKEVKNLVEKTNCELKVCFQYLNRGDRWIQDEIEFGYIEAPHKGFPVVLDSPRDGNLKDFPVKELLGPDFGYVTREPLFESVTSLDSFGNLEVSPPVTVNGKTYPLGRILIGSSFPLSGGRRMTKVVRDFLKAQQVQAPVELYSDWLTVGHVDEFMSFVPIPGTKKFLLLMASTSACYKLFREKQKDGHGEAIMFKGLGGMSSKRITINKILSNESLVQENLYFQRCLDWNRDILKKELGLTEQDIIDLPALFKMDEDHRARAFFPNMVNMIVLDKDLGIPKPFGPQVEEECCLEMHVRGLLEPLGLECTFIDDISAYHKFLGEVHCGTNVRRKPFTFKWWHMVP", "UniProt Q6DWJ6, sequence (whole entry, looked up)": "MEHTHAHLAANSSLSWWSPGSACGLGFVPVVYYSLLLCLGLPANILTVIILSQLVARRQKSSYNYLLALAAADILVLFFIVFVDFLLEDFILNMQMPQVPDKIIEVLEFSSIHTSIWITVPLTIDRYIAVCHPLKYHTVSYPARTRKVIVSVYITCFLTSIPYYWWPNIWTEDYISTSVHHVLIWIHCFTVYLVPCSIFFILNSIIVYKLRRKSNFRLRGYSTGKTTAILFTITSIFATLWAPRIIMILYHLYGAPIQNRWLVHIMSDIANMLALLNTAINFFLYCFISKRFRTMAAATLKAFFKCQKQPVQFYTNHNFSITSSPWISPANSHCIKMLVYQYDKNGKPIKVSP", "UniProt P28223, sequence (whole entry, looked up)": "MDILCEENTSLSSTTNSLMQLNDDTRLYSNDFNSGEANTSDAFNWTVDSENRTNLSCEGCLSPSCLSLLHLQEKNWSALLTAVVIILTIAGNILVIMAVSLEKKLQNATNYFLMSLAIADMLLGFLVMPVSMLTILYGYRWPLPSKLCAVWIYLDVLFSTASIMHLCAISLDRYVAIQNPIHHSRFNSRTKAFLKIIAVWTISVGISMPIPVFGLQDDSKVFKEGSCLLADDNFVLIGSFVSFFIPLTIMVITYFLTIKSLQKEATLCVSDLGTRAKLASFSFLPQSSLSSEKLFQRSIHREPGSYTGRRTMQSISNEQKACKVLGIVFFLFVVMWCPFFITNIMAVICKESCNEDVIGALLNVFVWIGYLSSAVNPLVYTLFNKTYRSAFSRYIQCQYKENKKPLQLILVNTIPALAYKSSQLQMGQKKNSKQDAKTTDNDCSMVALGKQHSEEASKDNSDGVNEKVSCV", "UniProt Q14432, sequence (whole entry, looked up)": "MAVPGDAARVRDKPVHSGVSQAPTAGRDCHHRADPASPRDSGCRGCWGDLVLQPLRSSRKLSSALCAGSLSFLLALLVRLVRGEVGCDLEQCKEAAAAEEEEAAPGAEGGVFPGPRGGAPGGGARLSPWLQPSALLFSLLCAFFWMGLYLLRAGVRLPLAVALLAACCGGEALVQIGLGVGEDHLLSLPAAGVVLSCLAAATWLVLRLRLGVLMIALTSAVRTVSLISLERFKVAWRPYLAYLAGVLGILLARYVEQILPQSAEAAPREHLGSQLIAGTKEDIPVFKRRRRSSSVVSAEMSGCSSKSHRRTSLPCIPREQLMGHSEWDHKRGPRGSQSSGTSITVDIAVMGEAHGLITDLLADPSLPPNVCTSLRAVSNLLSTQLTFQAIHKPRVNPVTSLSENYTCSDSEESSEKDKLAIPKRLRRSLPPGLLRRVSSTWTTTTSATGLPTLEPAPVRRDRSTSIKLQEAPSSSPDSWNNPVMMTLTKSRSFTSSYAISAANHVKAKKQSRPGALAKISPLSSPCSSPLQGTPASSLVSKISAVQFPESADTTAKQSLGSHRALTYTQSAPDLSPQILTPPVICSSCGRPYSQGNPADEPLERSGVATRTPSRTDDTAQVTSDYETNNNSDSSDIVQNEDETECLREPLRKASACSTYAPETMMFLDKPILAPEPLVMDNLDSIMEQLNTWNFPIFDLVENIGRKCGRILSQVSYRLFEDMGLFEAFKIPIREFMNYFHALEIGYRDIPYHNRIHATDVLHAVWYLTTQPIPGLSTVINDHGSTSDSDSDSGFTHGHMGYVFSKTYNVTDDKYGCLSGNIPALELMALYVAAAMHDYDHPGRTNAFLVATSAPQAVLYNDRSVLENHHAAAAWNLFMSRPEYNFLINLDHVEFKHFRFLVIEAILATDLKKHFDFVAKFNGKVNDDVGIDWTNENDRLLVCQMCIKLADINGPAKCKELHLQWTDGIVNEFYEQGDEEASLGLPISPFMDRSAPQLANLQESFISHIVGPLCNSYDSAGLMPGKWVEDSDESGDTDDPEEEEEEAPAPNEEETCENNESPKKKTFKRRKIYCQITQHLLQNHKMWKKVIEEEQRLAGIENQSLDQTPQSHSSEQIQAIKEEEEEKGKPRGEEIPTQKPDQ"}
{"SMILES": "CN(C)[C@H]1C[C@@]23CC[C@@]4(O2)C(=CC[C@]2(C)[C@@H](c5ccc6ccncc6c5)CC[C@H]24)C=C3[C@@H](O)[C@@H]1O", "tested on": "PHKG2 (Homo sapiens, UniProt P15735)", "test": "ATP probe labelling, inhibitor, KiNativ profiling", "conditions": "1 µM", "measurement": "inhibition", "result": "-5.1%"}
{"SMILES": "N[C@H](C(=O)N1CCCC1)C1CCN(c2nccc3c(-c4ncc(Cl)cc4Cl)cccc23)CC1", "tested on": "PADI2 (Homo sapiens, UniProt Q9Y2J8)", "test": "enzyme activity", "conditions": "0.2458 µM, high-affinity site, with: Ca2+ 1.5 mM", "measurement": "kcat", "result": "1.67 s⁻¹ and 1.52 s⁻¹"}
{"SMILES": "CCN1CCN(Cc2ccc(C(=O)Nc3ccc(C)c(NCc4cnc5[nH]ccc5c4OC)c3)cc2C(F)(F)F)CC1", "tested on": "CDK13", "test": "binding, competition with immobilised ligand", "conditions": "1 µM", "measurement": "remaining binding", "result": "94%"}
{"SMILES": "O=C1NC(=O)c2c1c1cc(F)c[n+]3c1c1c2c2cc(O)ccc2[n]1[Ru-4]312([N]=C=S)[S+]3CC[S+]1CC[S+]2CC3 (centres unmarked)", "tested on": "CDC42BPA (Homo sapiens, UniProt Q5VT25)", "test": "enzyme activity", "conditions": "100 nM, human enzyme, with: 10 µM ATP", "scale": "relative to: untreated", "measurement": "remaining activity", "result": "110%"}
{"SMILES": "CS(C)(=O)=Nc1ccc(-c2ccc(-c3nc4cc(O[C@@H]5CO[C@H]6[C@@H]5OC[C@H]6O)[nH]c4cc3F)cc2)cc1", "tested on": "MET (Homo sapiens, UniProt P08581, Y1230H)", "test": "enzyme activity, inhibitor", "conditions": "10 µM", "measurement": "inhibition", "result": "-26%"}
{"SMILES": "CCCCC/C=C\\C/C=C\\C/C=C\\C/C=C\\CCCC(=O)NCCc1ccc(O)c(O)c1", "tested on": "Trpv1 (Mus musculus, UniProt Q704Y3, N552L)", "test": "ion current, agonist, whole-cell patch clamp", "conditions": "N552L", "measurement": "Hill coefficient", "result": "2.39 ± 0.41"}
{"SMILES": "COc1ncc2nc(C)n(Cc3ncc(S(N)(=O)=O)cc3F)c2c1-c1ccccc1", "tested on": "HTR2A", "test system": "cells", "conditions": "10 µM", "measurement": "activity", "result": "-3.25%"}
{"SMILES": "Cc1ccc(CC(=O)N2CCN(CC(OCc3ccc4ccccc4c3)c3ccc(Cl)cc3Cl)CC2)cc1 (centres unmarked)", "tested on": "ULK1 (Homo sapiens, UniProt O75385)", "test": "enzyme activity, inhibitor, ADP detection", "conditions": "0.1 µM", "measurement": "activity vs control", "result": "141%"}
{"SMILES": "O=C(N1CCCCC1)n1ccnn1", "tested on": "Platelet-activating factor acetylhydrolase IB subunit alpha2 (Mus musculus, UniProt Q61206)", "test": "enzyme activity, inhibitor, competitive ABPP-SILAC, refers to: Pafah1b2", "test system": "mouse T-cells", "conditions": "concentration not given, 4 h, treated in situ", "scale": "relative to: DMSO", "measurement": "activity ratio", "result": 1.61}
{"SMILES": "CCNC(=S)NN=Cc1c2ccccc2cc2ccccc12.Cc1ccc(C(C)C)cc1.[Cl-].[Cl-].[Ru+2]", "tested on": "Albumin (ALB, Homo sapiens, UniProt P02768)", "test": "binding, van't Hoff, modified Stern-Volmer", "conditions": "concentration not given", "measurement": "enthalpy change (ΔH°)", "result": "48.3 kJ/mol"}
{"SMILES": "Cc1cc(-c2ccc3ccccc3c2)nnc1NCCN1CCN(C)CC1", "tested on": "HTR2A", "test": "antagonist", "conditions": "concentration not given", "measurement": "antagonist activity", "result": "negative"}
{"SMILES": "C[C@@H](N)C(=O)N[C@H](Cc1ccccc1)C(=O)N[C@@H](Cc1ccccc1)C(=O)N[C@@H](CC(=O)O)C(=O)O", "tested on": "uncharacterized protein (Aplysia californica, UniProt A0ABM0K1K5)", "test": "IP1 accumulation", "test system": "CHO-K1 transfected", "measurement": "fold loss of potency", "result": "~3 fold"}
{"SMILES": "OC1Cc2ccccc2CC1N1CCC2(C=Cc3cc(Br)ccc32)CC1 (racemic)", "tested on": "Vesicular acetylcholine transporter (Rattus norvegicus, UniProt Q62666)", "scale": "relative to: Ki sigma1 over Ki VAChT", "measurement": "selectivity ratio", "result": 0.12}
{"SMILES": "CC(C)CC(O)(CC(C)C)c1cn(C(=O)N2CCCC2)nn1", "tested on": "Presenilin-associated rhomboid-like protein, mitochondrial (Parl, Mus musculus, UniProt Q5XJY4)", "test": "probe labelling, inhibitor, competitive ABPP-SILAC, refers to: Parl", "test system": "mouse T cells", "conditions": "concentration not given, 4 h, in situ, single peptide", "scale": "relative to: treated over DMSO, lower = more inhibition", "measurement": "SILAC ratio", "result": "1.26 and 1.3 and 1.33 and 0.78 and 1.45 and 1.25 and 1.35 and 1.27"}
{"SMILES": "[CH3][Ti+2][O]C(=O)c1ccc([S][Au][PH](c2ccccc2)(c2ccccc2)c2ccccc2)cc1.c1cc[cH-]c1.c1cc[cH-]c1", "tested on": "PRKACG (Homo sapiens, UniProt P22612)", "test": "kinase activity, HotSpot radiometric", "conditions": "1 µM, with: ATP 10 µM", "scale": "relative to: vehicle", "measurement": "remaining activity", "result": "104% and 111%"}
{"SMILES": "CC[C@H](C)[C@H](NC(=O)[C@H](CCCNC(=N)N)NC(=O)[C@H](CCCNC(=N)N)NC(=O)[C@H](CC(C)C)NC(=O)[C@H](Cc1ccccc1)NC(=O)CNC(=O)CNC(=O)[C@@H](N)Cc1ccc(O)cc1)C(=O)N[C@@H](CCCNC(=N)N)C(=O)N1CCC[C@H]1C(=O)N[C@@H](CCCCN)C(=O)N[C@@H](CC(C)C)C(=O)N[C@@H](CCCCN)C(=O)O", "tested on": "GPR139 (Homo sapiens, UniProt Q6DWJ6)", "test": "Gαq activation, agonist, BRET", "test system": "HEK293T/17", "conditions": "40 µM", "measurement": "Emax", "result": "81.5% and 81.3%"}
{"SMILES": "CC(C)[C@H]1NC(=O)C[C@H]2/C=C/CCSSC[C@@H](NC1=O)C(=O)N[C@H](Cc1cccc3ccccc13)C(=O)NCC(=O)O2", "tested on": "PBK (Homo sapiens, UniProt Q96KB5)", "test": "enzyme activity, inhibitor", "conditions": "10 µM", "measurement": "inhibition", "result": "7.9%"}
{"SMILES": "C[C@H](NCc1ccc(-c2ccc(C(F)(F)F)cc2)cc1)C(N)=O", "tested on": "Tyrosine-protein kinase ABL1, phosphorylated (ABL1, Homo sapiens, UniProt P00519)", "test": "cell-free assay, competition with immobilised ligand", "conditions": "1 µM", "measurement": "inhibition", "result": "8%"}
{"SMILES": "O=C(N[C@@H]1c2ccccc2C[C@H]1N1CCCC1)c1ccc(-c2ccnc3[nH]ccc23)nc1", "tested on": "CDK13", "test": "binding, competition with immobilised ligand", "conditions": "3 µM", "measurement": "remaining binding", "result": "3.1%"}
{"SMILES": "CCOC(=O)[C@@H]1Cc2c(cc([N+](=O)[O-])cc2[N+](=O)[O-])[C@H](O)[C@]12C(=O)Nc1ccc(Br)cc12", "tested on": "MAP3K4 (Homo sapiens, UniProt Q9Y6R4)", "test": "binding, competition with immobilised ligand", "conditions": "0.1 µM", "measurement": "remaining binding", "result": "97%"}
{"SMILES": "CCn1nc(Cl)c2c1-c1cnc(N)c(c1)O[C@H](C)c1cc(F)ccc1-c1nn(C)cc1C2", "tested on": "IGF1R (Homo sapiens, UniProt P08069)", "test": "kinase activity, inhibitor", "scale": "relative to: IC50 IGF1R over IC50 ALK", "measurement": "selectivity ratio", "result": "160 fold"}
{"SMILES": "CCc1nnc(-c2c(OC)cc(-c3cnc4cc(-c5cnn(C)c5)ccn34)cc2OC)o1", "tested on": "PDE3A (Homo sapiens, UniProt Q14432)", "test": "radioligand binding", "conditions": "10 µM, SafetyScreen44 replicate 2", "scale": "lower = stronger displacement", "measurement": "remaining binding", "result": "104%"}
{"SMILES": "C#CCCCCOc1ccc2c(c1)CCCN2C(=O)CCl", "tested on": "PDE8A (Homo sapiens, UniProt O60658)", "test": "mass spectrometry profiling", "test system": "H460 cell lysate", "conditions": "100 µM over 10 µM, UniProt O60658", "scale": "relative to: high over low concentration", "measurement": "reactivity ratio", "result": 1.52}
{"SMILES": "C=CC(=O)NC[C@H](NC(=O)[C@H](CC1CCCCC1)NC(=O)[C@H](CCC(N)=O)NC(C)=O)C(=O)N[C@@H](CC(C)C)C(=O)N[C@@H](Cc1ccccc1)C(=O)O", "tested on": "Beta sliding clamp (Escherichia coli, UniProt P0A988)", "test": "binding, isothermal titration calorimetry", "conditions": "22 °C", "measurement": "-TΔS", "result": "8.79 kJ/mol"}
{"SMILES": "O=C1NC2(CC2)COc2ncc(F)cc2[C@H]2COCCN2c2ccn3ncc1c3n2", "test system": "Sprague-Dawley rat, female, serum", "conditions": "oral, 10 mg/kg/day, 4 weeks daily, end of recovery period", "measurement": "alanine aminotransferase activity", "result": "21.6 ± 6.3 U/L"}
{"SMILES": "O=C(CN1CN(c2ccccc2)C2(CCN(C(=O)c3cnc4[nH]ncc4c3)CC2)C1=O)NCC(F)(F)F", "tested on": "CDK13", "test": "inhibitor", "conditions": "concentration not given", "measurement": "inhibition", "result": "< 50%"}
{"note": "Repeated from above:"}
{"SMILES": "C=CC(=O)NC[C@H](NC(=O)[C@H](CC1CCCCC1)NC(=O)[C@H](CCC(N)=O)NC(C)=O)C(=O)N[C@@H](CC(C)C)C(=O)N[C@@H](Cc1ccccc1)C(=O)O", "tested on": "Beta sliding clamp (Escherichia coli, UniProt P0A988)", "test": "binding, isothermal titration calorimetry", "conditions": "22 °C", "measurement": "-TΔS", "result": "8.79 kJ/mol"}
{"SMILES": "COc1ncc2nc(C)n(Cc3ncc(S(N)(=O)=O)cc3F)c2c1-c1ccccc1", "tested on": "HTR2A", "test system": "cells", "conditions": "10 µM", "measurement": "activity", "result": "-3.25%"}
{"SMILES": "CCc1nnc(-c2c(OC)cc(-c3cnc4cc(-c5cnn(C)c5)ccn34)cc2OC)o1", "tested on": "PDE3A (Homo sapiens, UniProt Q14432)", "test": "radioligand binding", "conditions": "10 µM, SafetyScreen44 replicate 2", "scale": "lower = stronger displacement", "measurement": "remaining binding", "result": "104%"}
{"SMILES": "O=C(N1CCCCC1)n1ccnn1", "tested on": "Platelet-activating factor acetylhydrolase IB subunit alpha2 (Mus musculus, UniProt Q61206)", "test": "enzyme activity, inhibitor, competitive ABPP-SILAC, refers to: Pafah1b2", "test system": "mouse T-cells", "conditions": "concentration not given, 4 h, treated in situ", "scale": "relative to: DMSO", "measurement": "activity ratio", "result": 1.61}
